Experimental data from different studies.
Each line is one published result; not all experiments were run side by side. Numbers after ± are the reported error. Bridges are numbered along the chain shown (N, C = ends). Where no end group is shown, it is not given here.
T1: B2m/H2-D1 single-chain trimer MHC part (Mus musculus); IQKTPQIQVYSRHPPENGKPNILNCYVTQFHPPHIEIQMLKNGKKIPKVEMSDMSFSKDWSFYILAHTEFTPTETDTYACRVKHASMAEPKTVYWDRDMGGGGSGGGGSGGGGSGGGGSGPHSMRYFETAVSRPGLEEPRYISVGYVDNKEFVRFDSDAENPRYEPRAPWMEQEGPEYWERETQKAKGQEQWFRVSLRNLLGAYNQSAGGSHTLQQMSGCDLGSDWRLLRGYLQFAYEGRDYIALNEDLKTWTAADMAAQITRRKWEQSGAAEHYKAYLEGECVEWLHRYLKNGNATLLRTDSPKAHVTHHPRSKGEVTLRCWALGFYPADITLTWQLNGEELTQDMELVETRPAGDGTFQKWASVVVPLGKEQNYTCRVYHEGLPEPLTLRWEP
B1: alanine racemase H125A (Geobacillus stearothermophilus, UniProt P10724); chain MNDFHRDTWAEVDLDAIYDNVENLRRLLPDDTHIMAVVKANAYGHGDVQVARTALEAGASRLAVAFLDEALALREKGIEAPILVLGASRPADAALAAQQRIALTVFRSDWLEEASALYSGPFPIAFHLKMDTGMGRLGVKDEEETKRIVALIERHPHFVLEGLYTHFATADEVNTDYFSYQYTRFLHMLEWLPSRPPLVHCANSAASLRFPDRTFNMVRFGIAMYGLAPSPGIKPLLPYPLKEAFSLHSRLVHVKKLQPGEKVSYGATYTAQTEEWIGTIPIGYADGWLRRLQHFHVLVDGQKAPIVGRICMDQCMIRLPGPLPVGTKVTLIGRQGDEVISIDDVARHLETINYEVPCTISYRVPRIFFRHKRIMEVRNAIGRGESSA
B2: protein F222G (Planktothrix agardhii, UniProt F5B6Z0); chain MIVNVIQKDRLKEQKLQFIRNHQQAFDVEPIYPLPLFEDFVTSIEGDCSLEASCKIESDKLIASRFLLFFEDKTQEWQKYLHQSLTFFGLVENRVGVKINYSLLQQFLGSSFDFSKVTVLSAGIDLRNNLAESSLKMHIRIKDYPEKLDKAFALSDGAADGNYLKDFVNLIGFDFYFNGKSEIEIYAEVQEDDFFKPEINNLVWQHFPKTALQPLKASSLFGTGLSKANNNPVLYYHLKNRQDLTNYFKLNDTAQRVHSFYQHQDILPYMWVGTAQKELEKTRIENIRLYYYKSFKMESN

| Molecule | tested on | test | test system | conditions | how to read | endpoint | value |
| --- | --- | --- | --- | --- | --- | --- | --- |
| PRL (Homo sapiens, UniProt P01236) | – | NMR, item: His59 | – | 35 °C, numbering of the source | – | pKa | 5.84 |
| UGT1A9 (Homo sapiens, UniProt O60656) | COc1ccc(-c2oc3ccccc3c(=O)c2O)cc1 | steady-state kinetics | – | pH 7.4, 37 °C | – | Vmax/Km | 32000 µL/min/mg |
| N=C(N)NCCC[C@@H]1NC(=O)[C@H](CSC2CC(=O)N(CCNC(=O)CN3CCN(CC(=O)O)CCN(CC(=O)O)CCN(CC(=O)O)CC3)C2=O)NC(=O)[C@H](CCCCN)NC(=O)[C@@H](Cc2ccc(O)cc2)NC(=O)[C@H](CC(=O)O)NC(=O)CNC1=O (stereo partly shown) [gallium-68 labelled] | – | – | BALB/c nude mice, MGC-803 xenograft, tumour | 3 h post-injection, with: unlabelled HS-RGD 50 mg/kg | – | tumour uptake | 1.53 ± 0.4 %ID/g |
| COc1cccc2c1C(=O)c1c(O)c3c(c(O)c1C2=O)C[C@@](O)(C(=O)CO)C[C@@H]3O[C@H]1C[C@H](NC(=O)[C@@H]2CCCN2C(=O)CN)[C@H](O)[C@H](C)O1 | – | – | mouse, E0771 tumour-bearing, kidney | intravenous, 92 µmol/kg PhAc-ALGP-Dox | – | Tmax | 5 min |
| Tat (Mus musculus, UniProt Q8QZR1) | N[C@@H](Cc1ccc(O)cc1)C(=O)O | steady-state kinetics | – | pH 7, 38 °C, 100 mM phosphate, with: 10 mM KGA; PLP | – | kcat/Km | 10700 M⁻¹ s⁻¹ |
| CGGQDLKSC (disulfide 1-9 (inferred)) (disulfide) | CuFi-1 | flow cytometry | nanoparticles after CF sputum permeation | 2 h, 37 °C | reference: unmodified carboxylated nanoparticles | cell uptake | ~3 fold |
| CC(C)[C@H](NC(=O)[C@@H]1CCCN1C(=O)[C@H](CCCNC(=N)N)NC(=O)[C@H](CS)NC(=O)[C@H](Cc1c[nH]c2ccccc12)NC(=O)[C@H](CCCNC(=N)N)NC(=O)[C@@H](Cc1ccccc1)NC(=O)[C@H](Cc1c[nH]cn1)NC(=O)[C@H](CCC(=O)O)NC(=O)[C@H](CS)NC(=O)[C@H](CS)NC(=O)[C@H](CCCCN)NC(=O)[C@@H]1CC(=O)N[C@@H](CCCNC(=N)N)C(=O)N[C@@H](C)C(=O)N[C@@H](CC(=O)O)C(=O)N[C@H](Cc2ccc(O)cc2)C(=O)N1)C(N)=O [technetium-99m labelled] | – | – | C57 mice, intestines | iv, 0.037 MBq, 24 h | – | tissue uptake | 0.85 ± 0.42 %ID |
| B1 (alanine racemase H125A) | C[C@@H](N)C(=O)O | steady-state kinetics | – | pH 9, room temperature, with: NAD+ 10 mM | – | kcat/Km | 820000 M⁻¹ s⁻¹ |
| B2 (protein F222G) | CC(C)=CCOP(=O)(O)OP(=O)(O)O | steady-state kinetics | – | with: tri-Tyr peptide acceptor | – | kcat/Km | 15.3 M⁻¹ s⁻¹ |
| TAPDNLGYM (Tyrp1 peptide residues 455-463 A9M) | T1, B2m/H2-D1 single-chain trimer MHC part (Mus musculus) | differential scanning fluorimetry | peptide | – | – | Tm | 45.5 °C |
| Transferrin | human IAPP | fibrillization, thioflavin T fluorescence | – | 0.5 µM, pH 8.0, 37 °C, with: 25 µM hIAPP | – | time to control fluorescence maximum | 12 h |
| CPSSSREKC (disulfide 1-9 (inferred)) (disulfide) | CuFi-1 | flow cytometry | nanoparticles after CF sputum permeation | 2 h, 37 °C | reference: 1 kDa mPEG-coated nanoparticles | cell uptake | 2.2 fold |
| Insulin human | – | – | rat, thalamus/hypothalamus | intranasal, 20 µg per nostril, 120 min | – | brain concentration | 8.7 ± 8.7 pg/mg tissue |
